{"data": "Results collected from several papers", "note": "Parts stem from different laboratories: compare values within a part only. Changes are numbered by the printed parent chain.", "UniProt P21728, sequence (whole entry, looked up)": "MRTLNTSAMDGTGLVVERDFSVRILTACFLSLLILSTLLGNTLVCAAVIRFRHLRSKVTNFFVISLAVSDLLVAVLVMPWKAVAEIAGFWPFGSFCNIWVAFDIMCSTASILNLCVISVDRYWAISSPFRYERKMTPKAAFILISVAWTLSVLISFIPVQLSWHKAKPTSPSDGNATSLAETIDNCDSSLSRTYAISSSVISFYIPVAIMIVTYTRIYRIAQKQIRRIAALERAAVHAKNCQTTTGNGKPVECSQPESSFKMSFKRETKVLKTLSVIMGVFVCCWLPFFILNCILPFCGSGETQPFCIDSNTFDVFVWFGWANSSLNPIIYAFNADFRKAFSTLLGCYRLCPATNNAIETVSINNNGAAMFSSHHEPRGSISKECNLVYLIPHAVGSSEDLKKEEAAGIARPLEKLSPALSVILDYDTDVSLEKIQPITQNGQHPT"}
{"data": "Sample 1", "target": "vanadate, free oxyanion", "method": "microfluidic competitive inhibition", "matrix": "in vitro, cell-free expressed", "tested at": "not given", "setting": "derived from inhibition constants, unchanged parent 676 nM", "reading": "lower = stronger binding", "starting sequence": "PafA, mature enzyme, eGFP fusion (Elizabethkingia meningoseptica, UniProt Q9KJX5); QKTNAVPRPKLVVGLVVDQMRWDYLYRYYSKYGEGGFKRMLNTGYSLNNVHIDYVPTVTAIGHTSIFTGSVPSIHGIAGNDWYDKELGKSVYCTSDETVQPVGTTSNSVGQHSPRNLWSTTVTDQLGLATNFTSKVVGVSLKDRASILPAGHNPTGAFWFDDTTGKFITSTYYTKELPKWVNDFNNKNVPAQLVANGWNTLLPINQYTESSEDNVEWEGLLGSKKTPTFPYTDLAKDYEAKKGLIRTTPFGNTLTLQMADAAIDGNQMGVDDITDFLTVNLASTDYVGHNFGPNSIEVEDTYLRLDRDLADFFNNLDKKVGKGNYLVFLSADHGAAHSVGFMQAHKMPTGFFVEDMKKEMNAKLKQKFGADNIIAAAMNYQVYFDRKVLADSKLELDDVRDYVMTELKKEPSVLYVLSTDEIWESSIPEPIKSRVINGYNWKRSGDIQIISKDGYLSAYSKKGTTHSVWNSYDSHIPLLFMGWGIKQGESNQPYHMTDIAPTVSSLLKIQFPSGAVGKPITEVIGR"}
{"Substitution": "M342G", "oxyanion analog dissociation constant [µM]": 0.684}
{"Substitution": "P477G", "oxyanion analog dissociation constant [µM]": 0.785}
{"Substitution": "V99A", "oxyanion analog dissociation constant [µM]": 0.694}
{"Substitution": "T349G", "oxyanion analog dissociation constant [µM]": 0.656}
{"Substitution": "E359V", "oxyanion analog dissociation constant [µM]": 0.606}
{"data": "Sample 2", "target": "Ras GTPase-activating protein-binding protein 1, full length (G3BP1, Homo sapiens, UniProt Q13283)", "method": "RNA Bind-n-Seq", "molecule type": "RNA", "matrix": "in vitro", "tested at": "200 nM", "setting": "whole 134-nt RNA, ends assumed", "together with": "150 mM KCl", "reference": "input library", "reading": "higher = stronger binding", "UniProt Q13283, sequence (whole entry, looked up)": "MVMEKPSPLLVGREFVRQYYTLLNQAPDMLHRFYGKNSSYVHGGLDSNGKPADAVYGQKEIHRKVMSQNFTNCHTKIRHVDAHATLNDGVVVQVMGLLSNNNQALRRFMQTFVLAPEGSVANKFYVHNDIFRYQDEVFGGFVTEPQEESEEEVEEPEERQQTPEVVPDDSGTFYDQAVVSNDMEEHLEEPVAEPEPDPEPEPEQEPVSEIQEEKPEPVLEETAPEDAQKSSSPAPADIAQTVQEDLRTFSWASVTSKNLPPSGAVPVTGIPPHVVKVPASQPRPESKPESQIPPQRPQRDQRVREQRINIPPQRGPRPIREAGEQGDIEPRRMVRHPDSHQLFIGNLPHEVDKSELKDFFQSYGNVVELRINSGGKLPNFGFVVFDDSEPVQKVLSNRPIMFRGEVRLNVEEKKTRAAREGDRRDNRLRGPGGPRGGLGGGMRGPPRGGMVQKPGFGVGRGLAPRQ"}
{"Strand": "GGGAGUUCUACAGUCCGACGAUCCACAGACAACACGCACCCACACAGACACAGAGGGAAGGGGUUGGGAUGUGGACAGGGUGCACAGCAGGGCGGGGUAGGACCCCAGCCCCUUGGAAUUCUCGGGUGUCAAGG", "log2 enrichment": 1.47}
{"Strand": "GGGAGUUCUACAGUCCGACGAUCGUCCUGUGCUACACAUCGUAUGUACCGAAUCGGGGAAAGGGGAAAAAGGGGAAAGGGGAAAGUAUUAUGUUACGCCGUUCGGAUCUGCACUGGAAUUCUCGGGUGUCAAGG", "log2 enrichment": 0.604}
{"Strand": "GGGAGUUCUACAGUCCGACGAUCGUCCUGUGCUACACAUCGUAUGUACCGAAUCGGGGAAAGGGGAGGGGAAAAAAAGGGGAAAGUAUUAUGUUACGCCGUUCGGAUCUGCACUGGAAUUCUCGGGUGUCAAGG", "log2 enrichment": 0.313}
{"Strand": "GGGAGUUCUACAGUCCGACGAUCUCAAGUCCUGUGCUACACAUCGUAUGUACCGAAUCGGCCCCGGCCCCGGCCCCGGAAAGUAUUAUGUUACGCCGUUCGGAUCUGCACUUCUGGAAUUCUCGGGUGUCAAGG", "log2 enrichment": -0.876}
{"Strand": "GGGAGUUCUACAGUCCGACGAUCGUCCUGUGCUACACAUCGUAUGUACCGAAUCGGGGCCCCGGGGCCCCGGGGCCCCGGGAAAGUAUUAUGUUACGCCGUUCGGAUCUGCACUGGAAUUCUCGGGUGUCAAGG", "log2 enrichment": -0.629}
{"Strand": "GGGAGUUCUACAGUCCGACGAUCACAGGAAGUAAAAACAAAUGGAAAUGCUUCGGAUAGUGGCAGGGGUGGGGGUUGCUAAGGAAAGGGUGGGAUGGGAGUGGGUAAAGAGUUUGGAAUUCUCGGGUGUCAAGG", "log2 enrichment": 0.364}
{"Strand": "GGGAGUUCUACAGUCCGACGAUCGCAGGAGGUAAAAACAAAUGGAAAUGCUUCGGAUAGUGGCAGGGGUGGGGGUUGCUAAGGAAAGGGUGGGAUGGGAGUGGGUAAAGAGUUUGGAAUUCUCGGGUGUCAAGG", "log2 enrichment": 0.944}
{"Strand": "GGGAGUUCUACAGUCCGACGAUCCCUGUGCUACACAUCGUAUGUACCGAAUCGGGGAAAAAAAGGGGAGGGGUUUUUUUGGGGAAAGUAUUAUGUUACGCCGUUCGGAUCUGCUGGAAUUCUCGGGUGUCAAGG", "log2 enrichment": 0.192}
{"data": "Sample 3", "target": "CCND3, cyclin fold, Cln2 fusion (human)", "method": "yeast growth competition, sequencing", "matrix": "yeast", "setting": "weak parent motif", "reference": "not given", "reading": "higher = stronger binding", "starting sequence": "viral docking peptide; KGVKRKLFAEDSS"}
{"Substitution": "KGVKRKLFAEHSS [D11H]", "normalised enrichment score": 0.00862}
{"Substitution": "KGVKRKNFAEDSS [L7N]", "normalised enrichment score": 0.412}
{"Substitution": "KTVKRKLFAEDSS [G2T]", "normalised enrichment score": 0.122}
{"Substitution": "KGVCRKLFAEDSS [K4C]", "normalised enrichment score": -0.101}
{"Substitution": "KGVHRKLFAEDSS [K4H]", "normalised enrichment score": 0.291}
{"Substitution": "KGVKRYLFAEDSS [K6Y]", "normalised enrichment score": 0.0602}
{"Substitution": "KGVKRKLFAEDVS [S12V]", "normalised enrichment score": -0.00963}
{"Substitution": "KGVKRKLWAEDSS [F8W]", "normalised enrichment score": 0.0831}
{"Substitution": "KGVKRKLFAEESS [D11E]", "normalised enrichment score": -0.0617}
{"Substitution": "KGVKRKLFAFDSS [E10F]", "normalised enrichment score": 0.15}
{"Substitution": "KGVKRKTFAEDSS [L7T]", "normalised enrichment score": 0.325}
{"Substitution": "KGVKRKLFIEDSS [A9I]", "normalised enrichment score": 0.273}
{"Substitution": "KGVKRKPFAEDSS [L7P]", "normalised enrichment score": -0.0582}
{"data": "Further values, each from its own experiment"}
{"Molecule": "TOMM40 (Homo sapiens, UniProt O96008)", "target or system": "TOMM7 (Homo sapiens, UniProt Q9P0U1)", "test": "cross-linking MS", "system": "cells", "conditions": "together with: BSPNO", "measurement": "cross-linked residues", "value": "K184 to K17"}
{"Molecule": "CNC(=O)c1cc(C(=O)NC2CC2)cn(Cc2ccccc2)c1=O", "target or system": "D(1A) dopamine receptor (DRD1, Homo sapiens, UniProt P21728)", "test": "binding, radioligand binding", "conditions": "10 µM", "measurement": "inhibition", "value": "6.94%"}
{"note": "A few entries again (sample 3):"}
{"Substitution": "KGVKRKLFAEHSS [D11H]", "normalised enrichment score": 0.00862}
{"Substitution": "KGVKRKPFAEDSS [L7P]", "normalised enrichment score": -0.0582}
{"Substitution": "KGVKRYLFAEDSS [K6Y]", "normalised enrichment score": 0.0602}
{"Substitution": "KGVKRKLFAEDVS [S12V]", "normalised enrichment score": -0.00963}
